Results pooled from the literature.
Each line is one published result; not all experiments were run side by side. ± gives the spread as reported.
folA: Dihydrofolate reductase (folA, Escherichia coli, UniProt P0ABQ4)
Adenosylmethionine-8-amino-7-oxononanoate aminotransferase: Adenosylmethionine-8-amino-7-oxononanoate aminotransferase (Mycobacterium tuberculosis, UniProt P9WQ81)
ANPEP: Aminopeptidase N (ANPEP, Sus scrofa, UniProt P15145)
rep nsp14: Replicase polyprotein 1ab, nsp14 (rep, Severe acute respiratory syndrome coronavirus 2, UniProt P0DTD1)
T1: DNA aptamer; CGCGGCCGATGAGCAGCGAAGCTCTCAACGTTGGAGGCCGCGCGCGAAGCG

SMILES = O=C[C@@H](O)[C@@H](O)[C@H](O)[C@H](O)COP(=O)(O)O; target or system = uncharacterized protein (Bacteroides thetaiotaomicron, UniProt Q8A4G9); test = activator, phosphate release; setting = concentration not given, with: Mg2+; quantity = phosphatase activity; value = active
SMILES = Nc1nc(N)c2c(ccc3nccc32)[nH]1; target or system = folA; test = differential scanning fluorimetry; setting = estimate from thermal shift; quantity = Kd; value = 2400 ± 600 nM
SMILES = COC(=O)Nc1c(N)nc(-c2nn(Cc3ccccc3F)c3ncc(F)cc23)nc1N; system = healthy male humans, plasma; setting = oral, 10 mg once daily, phase I DDI study, with: sildenafil 100 mg; quantity = Cmax at steady state; value = 499 ng/mL
SMILES = N#CCC1CCN(c2nc(Nc3ccc(N4CCC(O)CC4)cc3)c3c(=O)[nH]ncc3n2)CC1; test = Olink multiplex, refers to: CDCP1; system = human, serum; setting = 80 mg, day 15, unit not given; how to read = baseline: placebo; quantity = serum level change; value = -1.29
SMILES = O=C(c1ccccc1)C1CCNCC1; target or system = Adenosylmethionine-8-amino-7-oxononanoate aminotransferase; test = thermal stability, differential scanning fluorimetry; setting = 5 mM, holo enzyme; how to read = baseline: DMSO; quantity = ΔTm; value = 3.6 ± 0.2 °C
SMILES = O=P(O)(O)O[C@H]1O[C@H](CO)[C@@H](O)[C@H](O)[C@H]1O; target or system = uncharacterized protein (Bacteroides thetaiotaomicron, UniProt Q8A4G9); test = activator, phosphate release; setting = concentration not given, with: Mg2+; quantity = phosphatase activity; value = inactive
SMILES = OC[C@H]1O[C@@H](O[C@@H]2[C@@H](O)[C@H](O[C@@H]3[C@@H](O)[C@H](O[C@@H]4[C@@H](O)[C@H](O[C@H]5[C@H](O)[C@@H](CO)OC(O)[C@@H]5O)O[C@H](CO)[C@H]4O)O[C@H](CO)[C@H]3O)O[C@H](CO)[C@H]2O)[C@H](O)[C@@H](O)[C@@H]1O (stereo partly drawn); target or system = uncharacterized protein (Bacteroides thetaiotaomicron, UniProt A0A173VPY3); test = ITC; setting = pH 7.0, 25 °C; quantity = ΔH; value = -28 kcal/mol
SMILES = CCn1c(=O)c(-c2cc(NC(=O)Nc3ccccc3)c(F)cc2Br)cc2cnc(NC)cc21; test = refers to: injury and poisoning; system = healthy, matched to mild impairment; setting = 50 mg single dose; quantity = patients with grade 3+ TEAE; value = 0%
SMILES = CC1COc2ccccc2N1C(=O)C(Cl)Cl (stereo not drawn); target or system = carboxylesterase; system = female rhesus monkey liver cytosol; setting = 5 µM, pH 7.4, without GSH; quantity = scaled intrinsic clearance; value = 42 mL/min/g liver
SMILES = N#Cc1cc(Cc2ccc3c(ccc4ccccc43)c2C#N)cc2c1ccc1ccccc12; target or system = ANPEP; test = enzyme activity; setting = 3 µM, 30 min preincubation, diluted 10-fold, unit not given; how to read = baseline: untreated; quantity = remaining activity; value = 0.989 ± 0.012
SMILES = COC(=O)Nc1c(N)nc(-c2nn(Cc3ccccc3F)c3ncc(F)cc23)nc1N; system = healthy white men; setting = dose not given, day 13, 312 h, LS mean difference, with: sildenafil 25 mg; how to read = baseline: placebo; quantity = seated HR maximum increase; value = -0.07 bpm
SMILES = [Co+2]; target or system = uncharacterized protein (Bacteroides thetaiotaomicron, UniProt Q8A4G9); test = phosphatase activity, activator, phosphate release; setting = 5 mM, EDTA-treated enzyme, with: substrate 25 mM; how to read = baseline: activity with Mg2+; quantity = relative specific activity; value = 0.0081
SMILES = O=C(NNC(=NS(=O)(=O)c1ccc(-n2nc(C(F)(F)F)cc2-c2cccs2)cc1)N1CCCC1)c1ccc(Cl)cc1; target or system = ANPEP; test = enzyme activity; setting = 3 µM, 30 min preincubation, diluted 10-fold, unit not given; how to read = baseline: untreated; quantity = remaining activity; value = 0.974 ± 0.011
SMILES = CO[C@H]1O[C@H](CO)[C@@H](O)[C@H](O)[C@@H]1O[C@H]1O[C@H](CO)[C@@H](O)[C@H](O)[C@@H]1O[C@H]1O[C@H](CO)[C@@H](O)[C@H](O[C@H]2O[C@H](CO)[C@@H](O)[C@H](O)[C@@H]2O)[C@@H]1O; target or system = Alpha-1,2-mannosidase (BT_3858) (Bacteroides thetaiotaomicron, UniProt Q8A113); test = alpha-1,3-mannosidase activity; setting = concentration not given; quantity = enzyme activity; value = active
SMILES = Cc1c(S(=O)(=O)N2CCC(C)CC2)cc(C(=O)NCc2nccnc2N2CCCC2)n1C; target or system = rep nsp14; test = inhibitor; quantity = IC50; value = 52 nM
SMILES = NC(=O)c1ccc(-n2ccnc2)cc1; target or system = Adenosylmethionine-8-amino-7-oxononanoate aminotransferase; test = thermal stability, differential scanning fluorimetry; setting = 5 mM, holo enzyme; how to read = baseline: DMSO; quantity = ΔTm; value = 4.1 ± 0.2 °C
SMILES = C(=C1c2ccccc2-c2c1ccc1ccccc21)c1cc2c3c(cccc3c1)-c1ccccc1-2; target or system = ANPEP; test = enzyme activity; setting = 3 µM, 30 min preincubation, undiluted, unit not given; how to read = baseline: untreated; quantity = remaining activity; value = 0.562 ± 0.001
SMILES = C=C1[C@@H](O)[C@@H]2O[C@]3(CC[C@H](/C=C/[C@@H](C)[C@@H]4CC(C)=C[C@@]5(O[C@H](C[C@@](C)(O)C(=O)O)CC[C@H]5O)O4)O3)CC[C@H]2O[C@@H]1[C@@H](O)C[C@H](C)[C@H]1O[C@@]2(CCCCO2)CC[C@H]1C; target or system = T1, DNA aptamer; test = microscale thermophoresis; setting = pH 7.5, 25 °C, NaCl 150 mM; quantity = Kd; value = 136 nM
SMILES = [Mn+2]; target or system = uncharacterized protein (Bacteroides thetaiotaomicron, UniProt Q8A183); test = phosphatase activity, activator, phosphate release; setting = 5 mM, EDTA-treated enzyme, with: substrate 20 mM; how to read = baseline: activity with Mg2+; quantity = relative specific activity; value = 0.059
SMILES = Nc1nc(N)c2cc(Sc3cccc(C(F)(F)F)c3)ccc2n1; target or system = folA; test = differential scanning fluorimetry; setting = estimate from thermal shift; quantity = Kd; value = 6200 ± 1200 nM
SMILES = [Mg+2]; target or system = uncharacterized protein (Bacteroides thetaiotaomicron, UniProt Q8A183); test = phosphatase activity, activator, phosphate release; setting = 5 mM, EDTA-treated enzyme, with: substrate 4 mM; how to read = baseline: activity with this ion; quantity = relative specific activity; value = 1
SMILES = O=C1c2c(O)ccc(O)c2C(=O)c2c(NCCNCCO)ccc(NCCNCCO)c21; target or system = DNA gyrase (gyrA/gyrB, Escherichia coli, UniProt P0AES4+P0AES6); test = DNA cleavage, fluorescence HTS; setting = 19.6 µM; quantity = inhibition; value = 54%
SMILES = [Ca+2]; target or system = uncharacterized protein (Bacteroides thetaiotaomicron, UniProt Q8A183); test = phosphatase activity, activator, phosphate release; setting = 5 mM, EDTA-treated enzyme, with: substrate 20 mM; how to read = baseline: activity with Mg2+; quantity = relative specific activity; value = 0.025
SMILES = OC[C@H]1O[C@@H](O[C@@H]2[C@@H](O)[C@H](O[C@@H]3[C@@H](O)[C@H](O[C@@H]4[C@@H](O)[C@H](O[C@@H]5[C@@H](O)[C@H](O[C@H]6[C@H](O)[C@@H](CO)OC(O)[C@@H]6O)O[C@H](CO)[C@H]5O)O[C@H](CO)[C@H]4O)O[C@H](CO)[C@H]3O)O[C@H](CO)[C@H]2O)[C@H](O)[C@@H](O)[C@@H]1O (stereo partly drawn); target or system = uncharacterized protein (Bacteroides thetaiotaomicron, UniProt A0A173VPY3); test = ITC; setting = pH 7.0, 25 °C; quantity = ΔG; value = -26.2 kcal/mol
SMILES = COc1ccccc1CNC(=O)c1cc(S(=O)(=O)N2CCC3(CC2)CC3)c(C)n1C; target or system = rep nsp14; test = inhibitor; quantity = IC50; value = > 6250 nM
SMILES = COc1cc([C@@H]2c3cc4c(cc3[C@@H](O[C@@H]3O[C@@H]5CO[C@@H](C)O[C@H]5[C@H](O)[C@H]3O)[C@H]3COC(=O)[C@H]23)OCO4)cc(OC)c1O; target or system = TOP2A (Homo sapiens, UniProt P11388); test = DNA cleavage; setting = 31.25 µM, replicate 2; quantity = linear DNA; value = 14.3%
SMILES = CO/N=C(\C(=O)N[C@@H]1C(=O)N2C(C(=O)O)=C(COC(C)=O)CS[C@H]12)c1csc(N)n1; target or system = Salmonella enterica serovar Derby; test = broth microdilution; system = clinical isolate RKI-No 270/14; quantity = MIC; value = > 16 µg/mL
SMILES = Fc1ccccc1Cc1nc(-c2nc(C(F)(F)F)n[nH]2)cn2ccnc12; system = healthy human subjects, both sexes; setting = oral, 10 mg, fed; quantity = subjects with respiratory TEAEs; value = 0%
SMILES = Nc1nc(N)c(-c2cccc(C(F)(F)F)c2)c(Cc2cccc(C(F)(F)F)c2)n1; target or system = folA; test = differential scanning fluorimetry; setting = estimate from thermal shift; quantity = Kd; value = 5200 ± 1300 nM
SMILES = C[C@H]1O[C@@H](O[C@H]2[C@@H](O)C[C@H](O[C@H]3[C@@H](O)C[C@H](O[C@H]4CC[C@@]5(C)[C@H](CC[C@@H]6[C@@H]5CC[C@]5(C)[C@@H](C7=CC(=O)OC7)CC[C@]65O)C4)O[C@@H]3C)O[C@@H]2C)C[C@H](O)[C@@H]1O; target or system = USP51 (Homo sapiens, UniProt Q70EK9); test = enzyme activity, inhibitor; setting = 5 µM; quantity = inhibition; value = 25%

For quick reference, copied from above:
SMILES = CCn1c(=O)c(-c2cc(NC(=O)Nc3ccccc3)c(F)cc2Br)cc2cnc(NC)cc21; test = refers to: injury and poisoning; system = healthy, matched to mild impairment; setting = 50 mg single dose; quantity = patients with grade 3+ TEAE; value = 0%
SMILES = CC1COc2ccccc2N1C(=O)C(Cl)Cl (stereo not drawn); target or system = carboxylesterase; system = female rhesus monkey liver cytosol; setting = 5 µM, pH 7.4, without GSH; quantity = scaled intrinsic clearance; value = 42 mL/min/g liver
SMILES = N#Cc1cc(Cc2ccc3c(ccc4ccccc43)c2C#N)cc2c1ccc1ccccc12; target or system = ANPEP; test = enzyme activity; setting = 3 µM, 30 min preincubation, diluted 10-fold, unit not given; how to read = baseline: untreated; quantity = remaining activity; value = 0.989 ± 0.012
SMILES = COC(=O)Nc1c(N)nc(-c2nn(Cc3ccccc3F)c3ncc(F)cc23)nc1N; system = healthy white men; setting = dose not given, day 13, 312 h, LS mean difference, with: sildenafil 25 mg; how to read = baseline: placebo; quantity = seated HR maximum increase; value = -0.07 bpm
SMILES = [Co+2]; target or system = uncharacterized protein (Bacteroides thetaiotaomicron, UniProt Q8A4G9); test = phosphatase activity, activator, phosphate release; setting = 5 mM, EDTA-treated enzyme, with: substrate 25 mM; how to read = baseline: activity with Mg2+; quantity = relative specific activity; value = 0.0081
